Measurements of several laboratories.
Lines come from different studies, so protocols differ. Values joined by “and” are separate records of one study, mostly repeats; a detail may differ. ± gives the spread as reported.
rep main protease: Replicase polyprotein 1ab, main protease (rep, Severe acute respiratory syndrome coronavirus 2, UniProt P0DTD1)

Compound	target or system	assay	test system	conditions	measurement	value
Cc1cc(C(=O)O)ccc1C1=NN(c2ccc(C#N)c(Cl)c2)C(C)C1 (stereo not shown)	Replicase polyprotein 1ab, nsp14 methyltransferase (rep, Severe acute respiratory syndrome coronavirus 2, UniProt P0DTD1)				lipophilic ligand efficiency	2.3
O=C(Oc1cncc(Cl)c1)c1ccc2[nH]ccc2c1	rep main protease	inhibitor, biochemical			kinact/Ki	3210 M⁻¹ s⁻¹
CC(=O)N[C@@H](Cc1ccc(O)cc1)C(=O)N[C@@H](CCCNC(=N)N)C(=O)N[C@@H](Cc1ccccc1)C(=O)N[C@H]1CCC[C@@H]1C(=O)N[C@@H](CCCNC(=N)N)C(=O)N[C@@H](CC(N)=O)C(=O)N[C@H]1CCC[C@@H]1C(=O)N[C@H](C(=O)N[C@@H](Cc1ccccc1)C(=O)N[C@H]1CCC[C@@H]1C(=O)N[C@@H](Cc1ccccc1)C(=O)N[C@@H](Cc1ccc(O)cc1)C(=O)N[C@H]1CCC[C@@H]1C(=O)N[C@H](C(=O)N[C@@H](CC(=O)O)C(N)=O)[C@@H](C)O)C(C)C	rep main protease	binding, SPR		pH 7.6	kon	8e+07 M⁻¹ s⁻¹
Cc1cccc(Cl)c1-n1sc(=O)n(CC2CC2)c1=O	Replicase polyprotein 1ab, nsp3 macrodomain (rep, Severe acute respiratory syndrome coronavirus 2, UniProt P0DTD1)	thermal stabilisation, differential scanning fluorimetry		300 µM, SARS-CoV-2	ΔTm	-18.9 ± 0.53 °C
CCCCCCCCCCCCCCCC(=O)N[C@@H](CCC(=O)NCCOCCOCCC(=O)NCCOCCOCCC(=O)NCCCC[C@H](NC(=O)[C@H](CC(=O)O)NC(=O)[C@H](CC(C)C)NC(=O)[C@H](Cc1ccc(O)cc1)NC(=O)[C@H](CCCCN)NC(=O)[C@H](CO)NC(=O)[C@H](Cc1ccc(O)cc1)NC(=O)[C@H](CC(=O)O)NC(=O)[C@H](CO)NC(=O)[C@@H](NC(=O)[C@H](Cc1ccccc1)NC(=O)[C@@H](NC(=O)CNC(=O)[C@H](CCC(N)=O)NC(=O)[C@@H](CO)NC(=O)[C@@H](N)Cc1c[nH]cn1)[C@@H](C)O)[C@@H](C)O)C(=O)N[C@@H](CCCNC(=N)N)C(=O)N[C@@H](CCCNC(=N)N)C(=O)N[C@@H](C)C(=O)N[C@@H](CCC(N)=O)C(=O)N[C@@H](CC(=O)O)C(=O)N[C@@H](Cc1ccccc1)C(=O)N[C@H](C(=O)N[C@@H](CCC(N)=O)C(=O)N[C@@H](Cc1c[nH]c2ccccc12)C(=O)N[C@@H](CC(C)C)C(=O)N[C@@H](CC(C)C)C(=O)N[C@@H](CC(N)=O)C(=O)N[C@H](C(=O)NCC(=O)NCC(=O)N1CCC[C@H]1C(=O)N[C@@H](CO)C(=O)N[C@@H](CO)C(=O)NCC(=O)N[C@@H](C)C(=O)N1CCC[C@H]1C(=O)N1CCC[C@H]1C(=O)N1CCC[C@H]1C(=O)N[C@@H](CO)C(N)=O)[C@@H](C)O)C(C)C)C(=O)O			Sprague-Dawley rat, male	subcutaneous, 500 µg/kg once daily, 14 days	creatinine	22.4 ± 1.5 µmol/L
CNC(=O)C[C@H](Cc1ccncc1)NC(=O)[C@@H](Cc1cccc(Br)c1)NC(=O)[C@@H](N)Cc1ccsc1	rep main protease			0.0001693 µM	remaining activity	87.8%
CCC1c2ccsc2CCN1C(=O)Cn1nnc2ccccc21 (stereo not shown)	rep main protease	protease activity, SAMDI-MS			Hill slope	1.54 and 1.55
O=C(/C=C/c1ccc(O)c(O)c1)O[C@@H]1Cc2c(O)cc(O)cc2O[C@@H]1c1ccc(O)c(O)c1	rep main protease	surface plasmon resonance			Rmax	319 RU
COC(=O)C(=O)/C(=C\c1ccc(-c2ccccc2[N+](=O)[O-])o1)C(=O)c1ccccc1	rep main protease	enzyme activity, inhibitor		5 µM	Vmax	33.1 ± 2.8 RFU/s
Cc1ccc(O[C@H]2CCN(C)C2)cc1C(=O)N[C@H](C)c1cc(-c2cnn(C)c2)nc2ccccc12	Replicase polyprotein 1ab, papain-like protease (rep, Severe acute respiratory syndrome coronavirus 2, UniProt P0DTD1)	reporter gene, cell-based			GFP/mCherry signal ratio	30.6 and -0.212 and 3.21 and 30.7 and 1.32 and -1.29
CCOC(=O)CC[C@H](NC(=O)c1ccccc1[Se][Se]c1ccccc1C(=O)N[C@@H](CCC(=O)OCC)C(=O)OCC)C(=O)OCC	rep main protease	enzyme activity, inhibitor		40 µM	inhibition	64.6% and 69.2%
O=c1c2cccc([N+](=O)[O-])c2[se]n1-c1ccccc1	rep main protease	FRET	SARS-CoV-2	main protease	Hill coefficient	2.2 ± 0.1
O=C(NC1CCC(F)(F)CC1)C(c1cncnc1)N(C(=O)C(F)Cl)c1ccc(-c2cncs2)cc1 (stereo not shown)	rep main protease	enzyme activity, inhibitor		0.926 µM	inhibition	101%
COC(=O)[C@H](C)NC(=O)c1ccccc1[Se][Se]c1ccccc1C(=O)N[C@@H](C)C(=O)OC	rep main protease	enzyme activity, inhibitor		40 µM	inhibition	104% and 107%
CNC(=O)C[C@H](Cc1ccncc1)NC(=O)[C@@H](Cc1cccc(Br)c1)NC(=O)[C@@H](N)Cc1cccc(F)c1	rep main protease			0.5229 µM	remaining activity	72.6%
O=C(NC1CCC(F)(F)CC1)C(c1cncnc1)N(C(=O)C(F)Cl)c1ccc(OC(F)(F)F)cc1 (stereo not shown)	rep main protease	enzyme activity, inhibitor		8.333 µM	inhibition	101%

Some of these lines once more:
Compound	target or system	assay	test system	conditions	measurement	value
CCOC(=O)CC[C@H](NC(=O)c1ccccc1[Se][Se]c1ccccc1C(=O)N[C@@H](CCC(=O)OCC)C(=O)OCC)C(=O)OCC	rep main protease	enzyme activity, inhibitor		40 µM	inhibition	64.6% and 69.2%
O=c1c2cccc([N+](=O)[O-])c2[se]n1-c1ccccc1	rep main protease	FRET	SARS-CoV-2	main protease	Hill coefficient	2.2 ± 0.1
